{"data": "Assay results collected from several papers", "note": "Parts stem from different laboratories: compare values within a part only. Several values in a cell are separate wells, animals, samples, runs or records.", "UniProt Q04912, sequence (whole entry, looked up)": "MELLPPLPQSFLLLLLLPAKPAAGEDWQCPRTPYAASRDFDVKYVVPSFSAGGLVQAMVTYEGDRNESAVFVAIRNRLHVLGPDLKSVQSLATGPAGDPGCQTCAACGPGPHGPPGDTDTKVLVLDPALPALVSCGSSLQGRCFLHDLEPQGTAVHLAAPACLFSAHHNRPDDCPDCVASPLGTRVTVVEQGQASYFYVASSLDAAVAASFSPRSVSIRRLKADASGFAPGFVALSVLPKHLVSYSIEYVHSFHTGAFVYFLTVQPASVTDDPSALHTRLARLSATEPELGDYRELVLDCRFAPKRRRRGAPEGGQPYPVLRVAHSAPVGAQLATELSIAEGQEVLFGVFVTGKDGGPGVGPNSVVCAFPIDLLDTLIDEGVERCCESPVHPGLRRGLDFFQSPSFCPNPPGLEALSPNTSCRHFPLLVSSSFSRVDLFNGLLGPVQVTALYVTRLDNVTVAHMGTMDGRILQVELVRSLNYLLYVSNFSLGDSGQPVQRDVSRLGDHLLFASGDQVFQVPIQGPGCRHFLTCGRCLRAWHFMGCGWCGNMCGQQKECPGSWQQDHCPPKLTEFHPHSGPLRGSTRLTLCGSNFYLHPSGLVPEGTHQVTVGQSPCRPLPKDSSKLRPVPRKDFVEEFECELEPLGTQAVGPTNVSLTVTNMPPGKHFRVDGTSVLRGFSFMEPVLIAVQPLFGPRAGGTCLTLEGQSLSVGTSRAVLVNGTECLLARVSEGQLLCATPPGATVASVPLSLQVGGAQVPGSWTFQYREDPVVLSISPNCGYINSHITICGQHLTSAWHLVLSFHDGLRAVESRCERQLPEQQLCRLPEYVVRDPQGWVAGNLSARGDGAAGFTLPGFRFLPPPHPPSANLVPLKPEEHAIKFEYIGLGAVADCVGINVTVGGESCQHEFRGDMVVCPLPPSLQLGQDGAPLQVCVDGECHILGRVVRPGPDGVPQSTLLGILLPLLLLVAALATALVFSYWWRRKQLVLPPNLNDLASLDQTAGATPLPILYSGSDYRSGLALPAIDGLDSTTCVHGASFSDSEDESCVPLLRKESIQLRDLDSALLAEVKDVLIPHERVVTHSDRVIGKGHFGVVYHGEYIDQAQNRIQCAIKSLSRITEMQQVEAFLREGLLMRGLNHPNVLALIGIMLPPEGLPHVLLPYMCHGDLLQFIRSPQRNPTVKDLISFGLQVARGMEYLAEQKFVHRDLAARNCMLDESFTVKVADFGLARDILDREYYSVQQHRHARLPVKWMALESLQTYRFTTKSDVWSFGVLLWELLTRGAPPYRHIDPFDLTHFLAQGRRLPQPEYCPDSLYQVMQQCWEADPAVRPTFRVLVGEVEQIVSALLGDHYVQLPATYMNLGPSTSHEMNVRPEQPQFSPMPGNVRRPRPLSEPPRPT", "UniProt O14936, sequence (whole entry, looked up)": "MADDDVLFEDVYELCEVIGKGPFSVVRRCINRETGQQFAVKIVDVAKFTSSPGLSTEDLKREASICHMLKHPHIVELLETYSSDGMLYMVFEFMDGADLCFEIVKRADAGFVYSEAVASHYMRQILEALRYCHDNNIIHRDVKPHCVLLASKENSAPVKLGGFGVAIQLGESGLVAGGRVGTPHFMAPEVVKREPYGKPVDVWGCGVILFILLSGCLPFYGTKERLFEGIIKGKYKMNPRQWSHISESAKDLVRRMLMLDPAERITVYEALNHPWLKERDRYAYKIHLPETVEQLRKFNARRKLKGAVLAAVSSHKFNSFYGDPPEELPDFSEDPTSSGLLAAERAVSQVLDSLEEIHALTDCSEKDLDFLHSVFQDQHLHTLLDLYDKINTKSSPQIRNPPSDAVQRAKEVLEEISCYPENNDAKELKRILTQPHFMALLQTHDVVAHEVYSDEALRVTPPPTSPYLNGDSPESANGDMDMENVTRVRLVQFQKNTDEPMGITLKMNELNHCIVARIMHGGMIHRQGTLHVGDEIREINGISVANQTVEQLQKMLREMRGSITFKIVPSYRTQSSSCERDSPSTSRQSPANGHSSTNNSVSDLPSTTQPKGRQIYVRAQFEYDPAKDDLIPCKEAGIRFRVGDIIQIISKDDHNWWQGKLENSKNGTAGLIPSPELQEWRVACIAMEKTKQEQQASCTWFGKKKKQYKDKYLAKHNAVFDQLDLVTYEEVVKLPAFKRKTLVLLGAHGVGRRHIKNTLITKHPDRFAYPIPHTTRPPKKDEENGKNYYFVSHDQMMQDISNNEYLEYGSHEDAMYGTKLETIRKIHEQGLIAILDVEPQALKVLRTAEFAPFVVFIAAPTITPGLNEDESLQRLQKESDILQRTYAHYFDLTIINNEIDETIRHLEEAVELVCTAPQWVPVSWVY", "UniProt P04629, sequence (whole entry, looked up)": "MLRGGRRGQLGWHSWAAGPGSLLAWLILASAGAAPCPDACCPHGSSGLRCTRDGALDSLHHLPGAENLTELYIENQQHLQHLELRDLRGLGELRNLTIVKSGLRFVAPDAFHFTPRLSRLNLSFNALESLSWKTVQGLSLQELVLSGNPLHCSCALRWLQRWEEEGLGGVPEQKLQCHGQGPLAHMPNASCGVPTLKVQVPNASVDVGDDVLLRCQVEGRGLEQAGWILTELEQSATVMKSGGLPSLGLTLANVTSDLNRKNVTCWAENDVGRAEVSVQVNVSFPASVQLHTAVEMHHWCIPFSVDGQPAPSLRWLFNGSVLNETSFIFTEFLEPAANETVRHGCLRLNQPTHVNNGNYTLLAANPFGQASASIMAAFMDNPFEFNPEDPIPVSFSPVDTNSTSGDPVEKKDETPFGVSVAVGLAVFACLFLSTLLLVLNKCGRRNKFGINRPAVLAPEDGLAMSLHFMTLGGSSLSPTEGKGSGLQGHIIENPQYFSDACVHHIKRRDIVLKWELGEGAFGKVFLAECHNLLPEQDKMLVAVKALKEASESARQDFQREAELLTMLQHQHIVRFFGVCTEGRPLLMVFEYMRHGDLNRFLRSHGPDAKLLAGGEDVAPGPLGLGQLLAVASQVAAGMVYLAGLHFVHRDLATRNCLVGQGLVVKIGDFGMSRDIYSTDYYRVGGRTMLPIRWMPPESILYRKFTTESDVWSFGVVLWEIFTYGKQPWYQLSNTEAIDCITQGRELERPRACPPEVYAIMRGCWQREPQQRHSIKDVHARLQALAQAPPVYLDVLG", "UniProt Q9Y2U5, sequence (whole entry, looked up)": "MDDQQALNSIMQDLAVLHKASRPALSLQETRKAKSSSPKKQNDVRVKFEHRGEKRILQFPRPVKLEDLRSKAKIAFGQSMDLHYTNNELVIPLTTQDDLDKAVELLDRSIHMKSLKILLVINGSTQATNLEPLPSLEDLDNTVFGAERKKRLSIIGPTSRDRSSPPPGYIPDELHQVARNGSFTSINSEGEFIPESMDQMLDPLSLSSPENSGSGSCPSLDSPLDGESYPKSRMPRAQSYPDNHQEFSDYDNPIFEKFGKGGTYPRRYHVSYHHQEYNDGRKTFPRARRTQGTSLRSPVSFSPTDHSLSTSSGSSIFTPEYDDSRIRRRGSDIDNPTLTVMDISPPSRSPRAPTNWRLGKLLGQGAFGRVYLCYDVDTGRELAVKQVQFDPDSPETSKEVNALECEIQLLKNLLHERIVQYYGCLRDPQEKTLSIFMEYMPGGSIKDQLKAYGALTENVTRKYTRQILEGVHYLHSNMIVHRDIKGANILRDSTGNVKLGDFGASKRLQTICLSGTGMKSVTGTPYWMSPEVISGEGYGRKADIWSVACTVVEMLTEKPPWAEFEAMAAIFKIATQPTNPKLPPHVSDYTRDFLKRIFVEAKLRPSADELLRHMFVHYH"}
{"data": "Set 1", "target": "panel of 300 human kinases", "concentration": "0.5 µM", "reading": "higher = more selective"}
{"Structure (SMILES)": "N#C/C(=C\\c1ccc(O)c(O)c1)C(=O)NCc1ccccc1", "Gini score": 0.66}
{"Structure (SMILES)": "C[C@@H]1CCN(C(=O)CC#N)C[C@@H]1N(C)c1ncnc2[nH]ccc12", "Gini score": 0.73}
{"Structure (SMILES)": "Cn1nc2c3c(cccc31)C(=O)c1ccccc1-2", "Gini score": 0.63}
{"Structure (SMILES)": "O=C1Cc2c([nH]c3ccc([N+](=O)[O-])cc23)-c2ccccc2N1", "Gini score": 0.65}
{"Structure (SMILES)": "Cc1ccc(NC2=CC(=O)c3sc(C)nc3C2=O)cc1", "Gini score": 0.58}
{"Structure (SMILES)": "Nc1nc(Nc2ccc(S(N)(=O)=O)cc2)nn1C(=O)c1c(F)cccc1F", "Gini score": 0.59}
{"data": "Set 2", "host": "mouse", "matrix": "microsomes or S9", "concentration": "2 µM", "time": "0.5 h"}
{"SMILES": "CC(=O)c1ccc(S(=O)(=O)N(CCCO)Cc2cc3c(C)cc(C)cc3[nH]c2=O)cc1", "remaining compound": "16.6%"}
{"SMILES": "CCOC(=O)c1ccccc1NS(=O)(=O)CC", "remaining compound": "82.3%"}
{"SMILES": "c1ccc(Cn2c(CNc3nc4ccccc4n3CCN3CCOCC3)nc3ccccc32)cc1", "remaining compound": "0.0491%"}
{"SMILES": "CC(C)c1nnc(-c2cccnc2N2CCN(C(=O)C3COc4ccccc4O3)CC2)o1 (stereo not drawn)", "remaining compound": "0.919%"}
{"SMILES": "OC(Cn1c(Cc2ccccc2)nc2ccccc21)Cn1c2ccc(Cl)cc2c2cc(Cl)ccc21 (stereo not drawn)", "remaining compound": "67.7%"}
{"data": "Set 3", "method": "PRP chromatography estimate", "matrix": "1,9-decadiene/PBS", "pH": "7.4"}
{"Compound": "CC(C)C[C@@H]1NC(=O)[C@H](C(C)C)NC(=O)[C@@H](CC(C)C)NC(=O)[C@@H](CC(C)C)NC(=O)[C@@H](CCC(=O)N2CCCC2)NC(=O)[C@H](CC(C)C)NC(=O)[C@@H](CC(C)C)NC1=O", "logD": 0.581}
{"Compound": "CC(C)C[C@@H]1NC(=O)[C@H](Cc2cscn2)NC(=O)[C@H](CCC(=O)N2CCCC2)NC(=O)[C@@H](CCC(=O)N2CCCC2)NC(=O)[C@H](CC(C)C)NC(=O)[C@@H](CC(C)C)NC(=O)[C@H](CC(C)C)NC1=O", "logD": -1.26}
{"Compound": "CC(C)C[C@@H]1NC(=O)[C@H](C)NC(=O)[C@@H](CC(C)C)NC(=O)[C@H](C)NC(=O)[C@H](C)NC(=O)[C@H](CC(C)C)NC(=O)[C@@H](CC(C)C)NC1=O", "logD": -1.89}
{"Compound": "CC(C)C[C@@H]1NC(=O)[C@H](CC(C)C)NC(=O)[C@H](CC(C)C)NC(=O)[C@H](CC(C)C)NC(=O)[C@@H](Cc2cscn2)NC(=O)[C@@H](CC(C)C)NC(=O)[C@H](C)NC1=O", "logD": 0.0754}
{"Compound": "CC(C)C[C@@H]1NC(=O)[C@H](C)NC(=O)[C@H](C)NC(=O)[C@H](CCC(=O)N2CCCC2)NC(=O)[C@H](CC(C)C)NC(=O)[C@H](CC(C)C)NC(=O)[C@@H](C(C)C)NC1=O", "logD": -2.6}
{"Compound": "CCC[C@H]1NC(=O)CSC[C@@H](C(=O)OCC)N(C)C(=O)[C@H](CC(C)C)NC(=O)[C@@H](C)N(C)C(=O)[C@H](CC(C)C)NC(=O)[C@H](C)N(C)C(=O)[C@@H]2CCCN2C(=O)[C@@H](CC(C)C)NC(=O)CN(CCC)C1=O", "logD": 0.311}
{"data": "Set 4", "cell line": "mouse MPNST tumor cells", "method": "high-content nuclear imaging", "measured": "cell number", "concentration": "10 µM", "time": "12 h", "setting": "mean of 2 replicates", "baseline": "plate mean", "reading": "higher = more cells"}
{"SMILES": "O=C(NNS(=O)(=O)c1ccccc1F)c1cc(F)cc(-c2ccccn2)c1", "nuclei count": "0.606 z-score"}
{"SMILES": "CCCOc1ccc2[nH]c(NC(=O)OC)nc2c1", "nuclei count": "-1.15 z-score"}
{"SMILES": "N#Cc1c(NC(=O)c2cccc3ccccc23)sc2c1CCCC2", "nuclei count": "-4.35 z-score"}
{"SMILES": "Cc1ccc(Nc2ncc3c(n2)N(C)C(=O)N(c2cc(NC(=O)c4cccc(C(F)(F)F)c4)ccc2C)C3)cn1", "nuclei count": "-4.14 z-score"}
{"SMILES": "NS(=O)(=O)c1cc(Cl)c(Cl)c(S(N)(=O)=O)c1", "nuclei count": "0.532 z-score and 0.977 z-score"}
{"SMILES": "CN(C)CCCOc1nn(Cc2ccccc2)c2ccccc12", "nuclei count": "1.96 z-score"}
{"data": "Set 5", "cell line": "A-375", "concentration": "100 µM", "time": "18 h"}
{"SMILES": "Cc1ccc(C(=O)Nc2ccc(CN3CCN(C)CC3)c(C(F)(F)F)c2)cc1C#Cc1cnc2cccnn12", "viability": "14%"}
{"SMILES": "NCCS", "viability": "99.8%"}
{"SMILES": "Oc1cc(O)c(Cl)cn1", "viability": "93.7%"}
{"SMILES": "N=C(N)c1ccc2cc(OC(=O)c3ccc(N=C(N)N)cc3)ccc2c1", "viability": "88.6%"}
{"SMILES": "O=c1c(O[C@@H]2O[C@H](CO)[C@H](O)[C@H](O)[C@H]2O)c(-c2ccc(O)c(O)c2)oc2cc(O)cc(O)c12", "viability": "103%"}
{"data": "Set 6", "Compound": "COc1ccc2cc(OCC3(C(=O)O)CN(C(=O)c4ccc(F)cc4)C3)ccc2c1", "observed": "cell-free assay", "method": "competition with immobilised ligand", "concentration": "1 µM"}
{"target": "MAP3K10 (Homo sapiens, UniProt Q02779)", "remaining binding [%]": 100}
{"target": "GRK7 (Homo sapiens, UniProt Q8WTQ7)", "remaining binding [%]": 93}
{"target": "EGFR (Homo sapiens, UniProt P00533)", "remaining binding [%]": 100}
{"target": "CASK (Homo sapiens, UniProt O14936)", "remaining binding [%]": 91}
{"target": "PIM2 (Homo sapiens, UniProt Q9P1W9)", "remaining binding [%]": 100}
{"target": "MAPK10 (Homo sapiens, UniProt P53779)", "remaining binding [%]": 85}
{"target": "GRK4 (Homo sapiens, UniProt P32298)", "remaining binding [%]": 100}
{"target": "MAPK13 (Homo sapiens, UniProt O15264)", "remaining binding [%]": 100}
{"target": "EPHB4 (Homo sapiens, UniProt P54760)", "remaining binding [%]": 95}
{"target": "AKT3 (Homo sapiens, UniProt Q9Y243)", "remaining binding [%]": 88}
{"target": "PIK3CA (Homo sapiens, UniProt P42336)", "remaining binding [%]": 100}
{"target": "PHKG2 (Homo sapiens, UniProt P15735)", "remaining binding [%]": 100}
{"target": "CLK3 (Homo sapiens, UniProt P49761)", "remaining binding [%]": 99}
{"target": "Ribosomal protein S6 kinase alpha-1, N-terminal kinase domain (RPS6KA1, Homo sapiens, UniProt Q15418)", "remaining binding [%]": 100}
{"target": "MAP3K9 (Homo sapiens, UniProt P80192)", "remaining binding [%]": 100}
{"target": "HUNK (Homo sapiens, UniProt P57058)", "remaining binding [%]": 100}
{"target": "ERBB2 (Homo sapiens, UniProt P04626)", "remaining binding [%]": 100}
{"target": "TGFBR2 (Homo sapiens, UniProt P37173)", "remaining binding [%]": 100}
{"target": "PAK4 (Homo sapiens, UniProt O96013)", "remaining binding [%]": 94}
{"target": "MST1R (Homo sapiens, UniProt Q04912)", "remaining binding [%]": 100}
{"target": "STK25 (Homo sapiens, UniProt O00506)", "remaining binding [%]": 100}
{"target": "SIK3 (Homo sapiens, UniProt Q9Y2K2)", "remaining binding [%]": 72}
{"target": "MINK1 (Homo sapiens, UniProt Q8N4C8)", "remaining binding [%]": 100}
{"target": "NTRK1 (Homo sapiens, UniProt P04629)", "remaining binding [%]": 71}
{"target": "MAP3K2 (Homo sapiens, UniProt Q9Y2U5)", "remaining binding [%]": 96}
{"data": "Other studies, line by line"}
{"Compound": "C=CCc1ccc(O)c(-c2ccc(O)c(CC=C)c2)c1", "target": "Anoctamin-1 (ANO1, Homo sapiens, UniProt Q5XXA6, del476-501)", "assay": "chloride current, inhibitor, whole-cell voltage clamp", "setting": "wild type at 100 mV, added: 10 µM magnolol", "how to read": "baseline: with over without magnolol", "measurement": "potency fold increase", "value": 1.15}
{"note": "A few entries again (set 6):"}
{"target": "HUNK (Homo sapiens, UniProt P57058)", "remaining binding [%]": 100}
{"target": "ERBB2 (Homo sapiens, UniProt P04626)", "remaining binding [%]": 100}
{"target": "TGFBR2 (Homo sapiens, UniProt P37173)", "remaining binding [%]": 100}
{"target": "PAK4 (Homo sapiens, UniProt O96013)", "remaining binding [%]": 94}
{"target": "MST1R (Homo sapiens, UniProt Q04912)", "remaining binding [%]": 100}
{"target": "STK25 (Homo sapiens, UniProt O00506)", "remaining binding [%]": 100}
{"target": "SIK3 (Homo sapiens, UniProt Q9Y2K2)", "remaining binding [%]": 72}
{"target": "MINK1 (Homo sapiens, UniProt Q8N4C8)", "remaining binding [%]": 100}
